Published values pooled from the literature.
Every numbered part comes from another study and shows a few of its results, in no order. Positions count from the first letter of the parent shown.

Sample 1 — target: CEP164, C-terminal peptide (human); method: DHFR complementation, deep sequencing; sample: yeast; relative to: wild type; direction: higher = weaker binding
Setting: single substitutions, model-inferred values
Starting sequence: PDZK1, PDZ domain 2 (human); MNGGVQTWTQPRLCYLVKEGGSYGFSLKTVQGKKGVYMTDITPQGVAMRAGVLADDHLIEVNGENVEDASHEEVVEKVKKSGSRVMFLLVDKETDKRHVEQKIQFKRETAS; partner HNRVKVYRF
For `G82E`, “binding free energy change” read 0.597 kcal/mol.
`Q31C`: “binding free energy change” 0.0129 kcal/mol.
`D55R`: “binding free energy change” 0.909 kcal/mol.
Under “binding free energy change”, `V66A` is recorded as 1.08 kcal/mol.
`T7C`: “binding free energy change” -0.103 kcal/mol.
`D55K`: “binding free energy change” 0.621 kcal/mol.
Under “binding free energy change”, `V46H` is recorded as 0.896 kcal/mol.

Sample 2 — target: CCNF, cyclin fold, Cln2 fusion (human); method: yeast growth competition, sequencing; sample: yeast; setting: strong parent motif; relative to: not given; direction: higher = stronger binding
Starting sequence: E2F1 docking peptide (human); PPVKRRLDLETDH
For `E10R`, “normalised enrichment score” read 6.21.
`D12A`: “normalised enrichment score” 7.31.
For `H13C`, “normalised enrichment score” read 6.71.
`V3Y` — result for “normalised enrichment score”: 3.47.
`L7T` — result for “normalised enrichment score”: 0.185.
`D8H`: “normalised enrichment score” 7.11.
For `E10A`, “normalised enrichment score” read 7.14.
For `L7I`, “normalised enrichment score” read 1.92.
For `V3T`, “normalised enrichment score” read 5.28.
`K4H`: “normalised enrichment score” 4.8.
`K4T` — result for “normalised enrichment score”: 1.92.
For `L7G`, “normalised enrichment score” read 0.375.
`V3E` — result for “normalised enrichment score”: 2.51.
`L7C` — result for “normalised enrichment score”: 0.286.

Sample 3 — method: protein-binding microarray; form: double-stranded DNA, one strand shown; sample: in vitro; concentration: 2540 nM top; setting: 60-bp whole probe; added: salmon DNA 0.4 mg/ml; relative to: random background probes; direction: higher = stronger binding; shared flanks, not repeated: GCCTAGCAC … GTCTTGATTCGCTTGACGCTGCTG
Target: Interferon regulatory factor 3, full length, phosphomimetic (IRF3, Homo sapiens, UniProt Q14653, residues 1-427, S386D/S396D/S398D/S402D/T404D/S405D)
Sequence of UniProt Q14653 (whole entry, unmodified, looked up): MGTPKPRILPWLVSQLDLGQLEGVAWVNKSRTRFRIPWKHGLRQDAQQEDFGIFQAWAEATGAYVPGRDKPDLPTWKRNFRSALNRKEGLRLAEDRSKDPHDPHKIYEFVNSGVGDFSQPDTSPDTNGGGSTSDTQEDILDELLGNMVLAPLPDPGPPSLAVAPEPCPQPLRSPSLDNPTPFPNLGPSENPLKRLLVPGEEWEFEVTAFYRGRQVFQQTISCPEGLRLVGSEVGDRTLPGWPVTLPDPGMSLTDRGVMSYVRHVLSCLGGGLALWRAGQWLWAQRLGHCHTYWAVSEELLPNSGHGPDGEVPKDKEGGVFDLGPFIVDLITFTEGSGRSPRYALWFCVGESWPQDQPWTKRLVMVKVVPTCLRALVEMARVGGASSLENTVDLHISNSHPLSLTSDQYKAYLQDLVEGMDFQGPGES
`TCATTTTTCCCTCTGGAAAAGTGCTAG` — result for “fitted relative affinity”: 2.95 z-score.
Under “fitted relative affinity”, `TAAGGTTTCGGTTCCGGTTAGTGCTAG` is recorded as 11.3 z-score.
For `TATGGTATTTTTTTCTAATTGTGCTAG`, “fitted relative affinity” read 0.689 z-score.
For `TTAGGCCTGGGTATCGGTTAGTGCTAG`, “fitted relative affinity” read 0.0256 z-score.
`GACAGTATCGGTTTCGGGACGTGCTAG`: “fitted relative affinity” 7.81 z-score.
`GGGCCAGCAGCCAGGTGGAGGTGCTAG`: “fitted relative affinity” -1.73 z-score.
`GTAGGTCTCCTACTGCTTTAGTGCTAG` — result for “fitted relative affinity”: 0.742 z-score.
For `GACGATATCGGGTATCGAGCCGTGCTA`, “fitted relative affinity” read -0.135 z-score.
For `GTCTCTATCAAAAATACAAAAGTGCTA`, “fitted relative affinity” read 0.685 z-score.
Under “fitted relative affinity”, `TTAGGTTCCGGTTTTGGTTAGTGCTAG` is recorded as 5.03 z-score.
`TCAAATTTATAAATAAAACTGTGCTAG`: “fitted relative affinity” 0.00663 z-score.
`TCATAAATATCTTTGTTACTGTGCTAG` — result for “fitted relative affinity”: -0.0215 z-score.
Under “fitted relative affinity”, `GAGGAGGGGCTGTTACTCTCGTGCTAG` is recorded as -0.855 z-score.
For `TTAGAACTGAGACTGGTTTAGTGCTAG`, “fitted relative affinity” read -0.35 z-score.
Under “fitted relative affinity”, `ATAGAACTGGGGTTTCGATTAGTGCTA` is recorded as 1.63 z-score.
For `GACGGTATCCTTATCCAGACGTGCTAG`, “fitted relative affinity” read 5.35 z-score.
Under “fitted relative affinity”, `GACGTACTGGGTTTCGGGACGTGCTAG` is recorded as 1.36 z-score.
For `GATGGTATCGGACTGGGGACGTGCTAG`, “fitted relative affinity” read 0.967 z-score.
For `TTAGATTTCGGGTTTCGATAAGTGCTA`, “fitted relative affinity” read 3.16 z-score.
Under “fitted relative affinity”, `ATATATATTATATATACACATGTGCTA` is recorded as 0.789 z-score.
Under “fitted relative affinity”, `TTAGGTACCGGTTTCGGTTAGTGCTAG` is recorded as 6.01 z-score.
`GCCGGTCTCGGTTTCGGGACGTGCTAG` — result for “fitted relative affinity”: 4.77 z-score.

Further values, each from its own experiment
With `PhoQ, residues 284 288 289 292 302 303 SLKLQV` the fold induction was 6.14 (PhoP, residues 12 14 15 18 19 AYFRS (Escherichia coli, UniProt P23836); Sort-seq, refers to: YFP reporter; E. coli; PhoQ-PhoP variant library, added: 10 µM Mg2+; relative to: high Mg2+ state, higher = stronger signaling).
